Results collected from several papers.
Lines come from different studies, so protocols differ. Numbers after ± are the reported error.
Sequence of UniProt P27467 (whole entry, looked up): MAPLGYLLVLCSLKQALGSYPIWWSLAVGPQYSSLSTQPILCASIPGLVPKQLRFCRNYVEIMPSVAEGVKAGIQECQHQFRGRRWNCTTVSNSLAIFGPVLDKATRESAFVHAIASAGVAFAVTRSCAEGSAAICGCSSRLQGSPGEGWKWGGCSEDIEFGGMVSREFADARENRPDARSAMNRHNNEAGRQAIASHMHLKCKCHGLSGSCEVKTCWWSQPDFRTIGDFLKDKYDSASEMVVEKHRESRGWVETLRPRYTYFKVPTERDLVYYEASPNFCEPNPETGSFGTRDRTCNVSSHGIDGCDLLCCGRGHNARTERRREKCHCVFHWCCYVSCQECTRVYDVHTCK
Sequence of UniProt Q96T88 (whole entry, looked up): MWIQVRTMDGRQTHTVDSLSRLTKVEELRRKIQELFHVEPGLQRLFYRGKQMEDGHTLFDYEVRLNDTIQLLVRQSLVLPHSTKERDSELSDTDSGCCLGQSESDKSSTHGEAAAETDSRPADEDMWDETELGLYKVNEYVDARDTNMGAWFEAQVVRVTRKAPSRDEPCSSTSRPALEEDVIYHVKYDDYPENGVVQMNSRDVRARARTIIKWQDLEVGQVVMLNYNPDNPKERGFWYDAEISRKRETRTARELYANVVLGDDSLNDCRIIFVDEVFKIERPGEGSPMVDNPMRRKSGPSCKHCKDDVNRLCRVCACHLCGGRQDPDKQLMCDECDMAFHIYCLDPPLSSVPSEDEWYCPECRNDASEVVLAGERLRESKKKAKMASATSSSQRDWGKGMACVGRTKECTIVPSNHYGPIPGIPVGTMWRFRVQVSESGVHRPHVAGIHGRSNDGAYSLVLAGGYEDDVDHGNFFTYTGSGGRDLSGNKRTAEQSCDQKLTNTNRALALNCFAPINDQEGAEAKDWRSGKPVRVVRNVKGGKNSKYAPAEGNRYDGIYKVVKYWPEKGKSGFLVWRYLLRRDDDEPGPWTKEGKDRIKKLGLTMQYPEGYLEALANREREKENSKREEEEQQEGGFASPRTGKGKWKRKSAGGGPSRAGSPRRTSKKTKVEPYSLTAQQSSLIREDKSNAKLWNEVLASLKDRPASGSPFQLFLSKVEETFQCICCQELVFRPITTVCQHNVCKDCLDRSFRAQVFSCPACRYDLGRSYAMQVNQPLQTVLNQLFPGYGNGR
Sequence of UniProt P22607 (whole entry, looked up): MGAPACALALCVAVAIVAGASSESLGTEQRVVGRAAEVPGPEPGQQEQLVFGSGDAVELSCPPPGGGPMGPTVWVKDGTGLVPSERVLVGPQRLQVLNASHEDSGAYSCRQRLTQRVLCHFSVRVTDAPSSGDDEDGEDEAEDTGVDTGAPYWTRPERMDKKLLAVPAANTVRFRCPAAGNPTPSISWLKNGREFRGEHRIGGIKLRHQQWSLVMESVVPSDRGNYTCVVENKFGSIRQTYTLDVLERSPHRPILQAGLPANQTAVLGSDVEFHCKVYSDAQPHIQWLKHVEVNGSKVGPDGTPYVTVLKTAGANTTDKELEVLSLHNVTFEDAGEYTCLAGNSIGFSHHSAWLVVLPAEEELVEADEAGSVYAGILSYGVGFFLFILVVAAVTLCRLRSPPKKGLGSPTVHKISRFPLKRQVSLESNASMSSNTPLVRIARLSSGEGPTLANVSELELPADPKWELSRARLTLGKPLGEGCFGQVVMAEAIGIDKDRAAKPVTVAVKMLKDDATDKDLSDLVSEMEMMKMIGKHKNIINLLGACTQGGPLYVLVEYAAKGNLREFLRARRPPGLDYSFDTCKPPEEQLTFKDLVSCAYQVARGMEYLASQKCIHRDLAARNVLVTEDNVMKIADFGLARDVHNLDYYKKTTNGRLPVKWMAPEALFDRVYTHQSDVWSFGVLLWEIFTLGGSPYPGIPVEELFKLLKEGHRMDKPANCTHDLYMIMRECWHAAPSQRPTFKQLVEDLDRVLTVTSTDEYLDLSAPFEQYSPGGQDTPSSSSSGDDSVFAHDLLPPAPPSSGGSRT
Sequence of UniProt P20813 (whole entry, looked up): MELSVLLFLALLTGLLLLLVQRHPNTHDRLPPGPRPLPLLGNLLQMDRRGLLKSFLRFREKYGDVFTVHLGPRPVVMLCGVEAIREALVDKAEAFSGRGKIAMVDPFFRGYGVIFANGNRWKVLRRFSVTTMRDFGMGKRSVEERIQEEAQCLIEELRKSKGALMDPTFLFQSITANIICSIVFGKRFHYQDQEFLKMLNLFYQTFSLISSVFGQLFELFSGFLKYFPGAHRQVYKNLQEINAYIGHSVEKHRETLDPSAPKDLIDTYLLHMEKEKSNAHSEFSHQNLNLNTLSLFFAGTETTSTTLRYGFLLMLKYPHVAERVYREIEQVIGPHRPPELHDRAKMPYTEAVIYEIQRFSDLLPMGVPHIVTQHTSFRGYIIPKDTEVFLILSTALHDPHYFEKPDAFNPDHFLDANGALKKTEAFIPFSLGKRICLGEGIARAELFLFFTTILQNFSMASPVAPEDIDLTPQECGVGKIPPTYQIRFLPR
Sequence of UniProt A0A109QYD3 (whole entry, looked up): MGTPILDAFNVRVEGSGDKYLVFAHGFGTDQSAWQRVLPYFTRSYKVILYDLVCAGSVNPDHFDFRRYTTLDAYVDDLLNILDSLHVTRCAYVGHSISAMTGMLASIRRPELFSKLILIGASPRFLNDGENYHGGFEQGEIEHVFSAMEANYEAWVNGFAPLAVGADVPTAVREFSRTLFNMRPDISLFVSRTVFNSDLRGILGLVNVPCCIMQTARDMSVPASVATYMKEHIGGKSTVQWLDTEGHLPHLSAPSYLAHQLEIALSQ
Sequence of UniProt Q460N5 (whole entry, looked up): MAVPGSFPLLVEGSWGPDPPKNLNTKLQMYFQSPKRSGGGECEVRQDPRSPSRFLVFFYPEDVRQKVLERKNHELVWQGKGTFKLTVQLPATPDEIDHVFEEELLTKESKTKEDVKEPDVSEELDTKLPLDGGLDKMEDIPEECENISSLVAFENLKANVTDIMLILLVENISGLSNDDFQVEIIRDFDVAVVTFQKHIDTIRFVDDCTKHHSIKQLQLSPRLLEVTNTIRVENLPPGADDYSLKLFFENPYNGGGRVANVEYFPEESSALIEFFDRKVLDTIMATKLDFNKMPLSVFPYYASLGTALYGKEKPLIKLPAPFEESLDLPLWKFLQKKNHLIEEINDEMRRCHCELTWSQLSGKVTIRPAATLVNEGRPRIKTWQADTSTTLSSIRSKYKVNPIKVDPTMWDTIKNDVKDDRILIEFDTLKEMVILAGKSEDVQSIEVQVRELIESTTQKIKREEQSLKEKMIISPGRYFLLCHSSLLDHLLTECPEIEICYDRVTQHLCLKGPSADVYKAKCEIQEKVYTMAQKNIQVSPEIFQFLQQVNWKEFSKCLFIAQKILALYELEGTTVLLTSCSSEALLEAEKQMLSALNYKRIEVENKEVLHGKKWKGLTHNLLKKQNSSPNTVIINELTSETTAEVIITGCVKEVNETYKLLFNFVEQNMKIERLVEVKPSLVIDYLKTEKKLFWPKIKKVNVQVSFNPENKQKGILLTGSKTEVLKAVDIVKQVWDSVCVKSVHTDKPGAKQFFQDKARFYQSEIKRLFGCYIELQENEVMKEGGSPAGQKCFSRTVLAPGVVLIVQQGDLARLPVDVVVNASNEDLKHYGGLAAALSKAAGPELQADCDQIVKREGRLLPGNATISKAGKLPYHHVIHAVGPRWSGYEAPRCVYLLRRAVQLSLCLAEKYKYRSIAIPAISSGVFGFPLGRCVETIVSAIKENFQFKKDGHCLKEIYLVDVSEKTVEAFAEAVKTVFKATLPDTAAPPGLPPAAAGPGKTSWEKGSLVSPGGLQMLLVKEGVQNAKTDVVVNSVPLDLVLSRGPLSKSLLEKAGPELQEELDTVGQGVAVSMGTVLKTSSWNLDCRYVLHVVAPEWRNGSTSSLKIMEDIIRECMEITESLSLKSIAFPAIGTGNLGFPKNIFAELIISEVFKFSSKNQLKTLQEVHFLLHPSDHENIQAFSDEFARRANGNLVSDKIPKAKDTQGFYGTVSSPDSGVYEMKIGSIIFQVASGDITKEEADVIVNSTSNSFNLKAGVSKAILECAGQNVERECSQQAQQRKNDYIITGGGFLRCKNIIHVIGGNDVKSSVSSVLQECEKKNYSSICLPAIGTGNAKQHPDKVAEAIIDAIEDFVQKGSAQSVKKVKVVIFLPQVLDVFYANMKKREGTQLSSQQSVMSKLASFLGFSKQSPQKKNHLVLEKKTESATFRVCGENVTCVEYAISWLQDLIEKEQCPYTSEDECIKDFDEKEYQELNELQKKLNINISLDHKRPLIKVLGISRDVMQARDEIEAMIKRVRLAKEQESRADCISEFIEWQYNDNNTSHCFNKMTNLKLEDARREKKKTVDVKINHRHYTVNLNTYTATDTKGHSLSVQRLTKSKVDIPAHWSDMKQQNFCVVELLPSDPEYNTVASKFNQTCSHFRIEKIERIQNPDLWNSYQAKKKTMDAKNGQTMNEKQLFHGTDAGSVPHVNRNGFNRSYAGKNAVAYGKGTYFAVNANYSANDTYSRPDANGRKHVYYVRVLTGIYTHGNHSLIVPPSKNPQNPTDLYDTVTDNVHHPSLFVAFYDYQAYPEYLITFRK
Sequence of UniProt Q15759 (whole entry, looked up): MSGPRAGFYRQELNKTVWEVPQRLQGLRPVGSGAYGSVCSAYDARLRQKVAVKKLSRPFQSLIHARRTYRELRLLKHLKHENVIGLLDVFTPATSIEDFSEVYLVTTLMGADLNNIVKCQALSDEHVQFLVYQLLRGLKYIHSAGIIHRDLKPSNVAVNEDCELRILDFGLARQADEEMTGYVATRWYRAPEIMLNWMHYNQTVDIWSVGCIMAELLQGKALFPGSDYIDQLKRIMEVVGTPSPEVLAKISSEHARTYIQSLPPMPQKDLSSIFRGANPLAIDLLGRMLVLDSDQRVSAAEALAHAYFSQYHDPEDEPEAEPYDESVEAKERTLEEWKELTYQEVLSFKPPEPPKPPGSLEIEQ

For `N=C(N)Nc1ccc(-c2nc3ccc(-c4ccc5nc(-c6ccc(NC(=N)N)cc6)[nH]c5c4)cc3[nH]2)cc1`, the Kd was 40 ± 6 nM (Cy5-labelled r(CUG)12 RNA; binding, microscale thermophoresis).
`CN[C@](C)(C[18F])C(=O)O` gave a tracer uptake of 1.3 %ID/g (DU-145 tumour model; host not given, lung; 2 h, tumour-bearing).
With `C[C@H](N)C(=O)N[C@@H](CCCNC(=N)N)C(=O)N[C@H](C(=O)N[C@@H](CCCCN)C(=O)N[C@@H](CCC(N)=O)C(=O)N[C@H](C(=O)N[C@@H](C)C(=O)N[C@@H](CCCNC(=N)N)C(=O)N[C@@H](CCCCN)C(=O)N[C@@H](CO)C(=O)N[C@H](C(=O)NCC(=O)NCC(=O)N[C@@H](CCCCN)C(=O)N[C@@H](C)C(=O)O)[C@@H](C)O)[C@@H](C)O)[C@@H](C)OP(=O)(O)O` the Kd was greater than 500000 nM (E3 ubiquitin-protein ligase UHRF1, PHD domain (UHRF1, Homo sapiens, UniProt Q96T88); binding).
`Nc1ncnc2c1ncn2[C@@H]1O[C@H](CO[P@](=O)(O)O[P@](=O)(O)OC[C@H]2O[C@@H](O)[C@H](O)[C@@H]2O)[C@@H](O)[C@H]1O` gave a Kd of 4700 nM (Protein mono-ADP-ribosyltransferase PARP14, macrodomain 2 (PARP14, Homo sapiens, UniProt Q460N5); lower = stronger binding).
`N=C(N)NCCC[C@@H]1NC(=O)[C@H](CCCCNC(=O)CCOCCOCCOCCOCCNC(=O)CN2CCN(CC(=O)O)CCN(CC(=O)O)CCN(CC(=O)O)CC2)NC(=O)[C@@H](Cc2ccccc2)NC(=O)[C@H](CC(=O)O)NC(=O)CNC1=O` [indium-111 labelled]: “tumour to muscle ratio” 7.12 ± 2.37 (female athymic nude mouse; intravenous, 3 µCi, 72 h, U-87 MG glioma xenograft; baseline: tumour over muscle).
With `O=C(O)C1CC1C(=O)c1ccc(Cl)c(Cl)c1` (stereo not shown) the Kd was 140 ± 10 nM (Kynurenine 3-monooxygenase, residues 1-394 (Saccharomyces cerevisiae, UniProt P38169); binding, flavin fluorescence; 25 °C).
`CCCCCc1cc(O)c2c(c1)OC(C)(C)C1CCC(CO)=CC21` (stereo not shown) gave an IC50 of 7300 ± 1000 nM (Cytochrome P450 2B6 (CYP2B6, Homo sapiens, UniProt P20813); enzyme activity, inhibitor; microsomes from HEK cells; 30 min, preincubation without NADPH).
With `CC(C)C[C@@H]1NC(=O)[C@H](Cc2ccc(O)cc2)NC(=O)[C@H](CCCCN)NC(=O)[C@H](CCCNC(=N)N)NC(=O)[C@@H](Cc2ccc(O)cc2)NC(=O)CSC[C@@H](C(=O)NCC(N)=O)NC(=O)[C@H](Cc2c[nH]c3ccccc23)NC(=O)[C@@H]2CCCN2C(=O)[C@H](Cc2ccccc2)NC(=O)[C@H](CCCNC(=N)N)NC(=O)[C@H](CCC(=O)O)NC(=O)[C@H](Cc2ccc(O)cc2)NC1=O` the Kd was 39.5 nM (Protein Wnt-3a, with afamin-Fc (Mus musculus, UniProt P27467); binding, SPR steady-state; Fc-captured Wnt3a-afamin-Fc).
The Kd of `CC[C@H](C)[C@H](NC(=O)[C@H](Cc1ccccc1)NC(=O)[C@H](C)NC(=O)[C@@H](N)CCCNC(=N)N)C(=O)N[C@@H](C)C(=O)N[C@@H](CO)C(=O)N[C@@H](CCCNC(=N)N)C(=O)N[C@@H](CCCNC(=N)N)C(=O)N[C@H](C(=O)N[C@@H](CCCNC(=N)N)C(=O)N[C@@H](CCCNC(=N)N)C(=O)N1CCC[C@H]1C(=O)NCC(=O)NCC(=O)NCC(=O)NCC(=O)N[C@@H](CS)C(=O)N[C@@H](CC(C)C)C(=O)N[C@@H](CC(C)C)C(=O)N[C@@H](CCCNC(=N)N)C(=O)N[C@@H](CC(C)C)C(=O)N[C@@H](CCCNC(=N)N)C(=O)N[C@@H](CC(=O)O)C(=O)N[C@H](C(=O)N[C@H](C(=O)N[C@@H](CS)C(=O)N[C@@H](Cc1c[nH]cn1)C(=O)N[C@@H](Cc1ccc(O)cc1)C(=O)N[C@@H](Cc1c[nH]c2ccccc12)C(=O)N[C@H](C(=O)N[C@@H](CCC(N)=O)C(=O)O)[C@@H](C)O)[C@@H](C)O)[C@@H](C)O)[C@@H](C)CC` is reported as 15 nM (Streptavidin (Streptomyces avidinii, UniProt P22629); binding).
The Kd of `CSCC[C@H](NC(=O)[C@H](CCC(N)=O)NC(=O)CNC(=O)[C@H](CCC(N)=O)NC(=O)[C@H](CO)NC(=O)[C@@H]1CCCN1C(=O)[C@H](CCSC)NC(=O)[C@@H](NC(=O)[C@H](CC(C)C)NC(=O)[C@H](CO)NC(=O)[C@H](CC(C)C)NC(=O)[C@@H](NC(=O)[C@@H](NC(=O)[C@H](CO)NC(=O)[C@@H](NC(=O)[C@H](CCCCN)NC(=O)[C@H](CO)NC(=O)[C@@H](NC(=O)[C@H](CO)NC(=O)[C@H](CCC(N)=O)NC(=O)[C@H](C)NC(=O)[C@H](CO)NC(=O)[C@H](CO)NC(=O)[C@H](Cc1ccc(O)cc1)NC(=O)[C@@H]1CCCN1C(=O)[C@@H](NC(=O)[C@H](CO)NC(=O)[C@@H](NC(=O)[C@@H]1CCCN1C(=O)[C@H](Cc1ccc(O)cc1)NC(=O)[C@@H](NC(=O)[C@H](CCCNC(=N)N)NC(=O)CNC(=O)CNC(=O)[C@@H]1CCCN1C(=O)[C@H](C)NC(=O)[C@@H]1CCCN1C(=O)[C@@H](NC(=O)[C@@H]1CCCN1C(=O)[C@@H](NC(=O)[C@@H]1CCCN1C(=O)[C@H](CCC(N)=O)NC(=O)[C@H](CO)NC(=O)[C@H](CCSC)NC(=O)[C@@H](N)CCC(=O)O)[C@@H](C)O)[C@@H](C)O)C(C)C)C(C)C)C(C)C)[C@@H](C)O)[C@@H](C)O)C(C)C)[C@@H](C)O)C(C)C)C(=O)N[C@H](C(=O)O)C(C)C` is reported as 1500 nM (Mitogen-activated protein kinase 11 (MAPK11, Homo sapiens, UniProt Q15759); binding, isothermal titration calorimetry; 25 °C).
`CCCC[C@H](NC(=O)CNC(=O)CNC(=O)c1ccc(NN)nc1)C(=O)N[C@H]1CC(=O)NCCCC[C@@H](C(N)=O)NC(=O)[C@H](Cc2c[nH]c3ccccc23)NC(=O)[C@H](CCCNC(=N)N)NC(=O)[C@@H](Cc2ccccc2)NC(=O)[C@H](Cc2c[nH]cn2)NC1=O` [technetium-99m labelled] — result for “tissue uptake ratio”: 28.4 (C57 mouse, B16/F1 melanoma-bearing; intravenous, 24 h; baseline: tumour over liver).
`CC(=O)NC1C(O)CC(OC2C(O)C(CO)OC(OC3C(O)C(CO)OC(O)C3NC(C)=O)C2O)(C(=O)O)OC1C(O)C(O)CO` (stereo not shown) gave a Kd of 568 nM (Intermedilysin, domain 4 (Streptococcus intermedius, UniProt Q9LCB8); binding).
With `CC[C@H](C)[C@H](NC(=O)[C@H](Cc1ccc(O)cc1)NC(=O)[C@H](CCCNC(=N)N)NC(=O)[C@H](Cc1ccc(O)cc1)NC(=O)[C@H](CCSC)NC(C)=O)C(=O)N[C@H]1CSCc2cccc(c2)CSC[C@@H](C(=O)N[C@@H](CC(C)C)C(=O)N[C@@H](C)C(=O)N[C@@H](CO)C(=O)N[C@@H](Cc2ccc(O)cc2)C(=O)NCC(=O)N[C@@H](CO)C(=O)NCC(=O)N[C@@H](CO)C(=O)NCC(=O)N[C@@H](CO)C(=O)N[C@@H](CC(=O)O)C(=O)N[C@@H](Cc2ccc(O)cc2)C(=O)N[C@@H](CCCCN)C(=O)N[C@@H](CC(=O)O)C(=O)N[C@@H](CC(=O)O)C(=O)N[C@@H](CC(=O)O)C(=O)N[C@@H](CC(=O)O)C(=O)N[C@@H](CCCCN)C(N)=O)NC(=O)[C@H](CC(N)=O)NC(=O)[C@H](CO)NC(=O)[C@H](CC(C)C)NC(=O)[C@H]([C@@H](C)O)NC1=O` the Kd was 100 nM (Fibroblast growth factor receptor 3 (FGFR3, Homo sapiens, UniProt P22607); binding, BLI).
With `CCCCCCCC[C@H]1NC(=O)[C@H](CCN)NC(=O)[C@@H](NC(=O)[C@H](CCN)NC(=O)[C@@H](NC(=O)[C@H](CCN)NC(=O)c2ccc(-c3ccccc3)cc2)[C@@H](C)O)CCNC(=O)[C@H]([C@@H](C)O)NC(=O)[C@H](CCN)NC(=O)[C@H](CCN)NC(=O)[C@H](CC(C)C)NC1=O` the Kd was 940 nM (anti-polymyxin B mouse IgM mAb; SPR; 25 °C).
With `CC1=C[C@H](O/C=C2/C(=O)O[C@H]3c4ccccc4C[C@@H]23)OC1=O` (racemic) the Kd was 71000 nM (RMS3 (Lathyrus oleraceus, UniProt A0A109QYD3); binding, fluorescence).
For `N=C(N)NCCC[C@@H]1NC(=O)[C@H](CCCCNC(=O)CC[C@H](NC(=O)CCOCCOCCOCCOCCNC(=O)CN2CCN(CC(=O)O)CCN(CC(=O)O)CCN(CC(=O)O)CC2)C(=O)NCCCC[C@@H]2NC(=O)[C@@H](Cc3ccccc3)NC(=O)[C@H](CC(=O)O)NC(=O)CNC(=O)[C@H](CCCNC(=N)N)NC2=O)NC(=O)[C@@H](Cc2ccccc2)NC(=O)[C@H](CC(=O)O)NC(=O)CNC1=O` [indium-111 labelled], the tumour uptake was 4.9 %ID/g (female athymic nude mouse, U-87 MG tumour; intravenous, 3 µCi, 1 h, U-87 MG glioma xenograft).

Some of these lines once more:
With `CC1=C[C@H](O/C=C2/C(=O)O[C@H]3c4ccccc4C[C@@H]23)OC1=O` (racemic) the Kd was 71000 nM (RMS3 (Lathyrus oleraceus, UniProt A0A109QYD3); binding, fluorescence).
For `N=C(N)NCCC[C@@H]1NC(=O)[C@H](CCCCNC(=O)CC[C@H](NC(=O)CCOCCOCCOCCOCCNC(=O)CN2CCN(CC(=O)O)CCN(CC(=O)O)CCN(CC(=O)O)CC2)C(=O)NCCCC[C@@H]2NC(=O)[C@@H](Cc3ccccc3)NC(=O)[C@H](CC(=O)O)NC(=O)CNC(=O)[C@H](CCCNC(=N)N)NC2=O)NC(=O)[C@@H](Cc2ccccc2)NC(=O)[C@H](CC(=O)O)NC(=O)CNC1=O` [indium-111 labelled], the tumour uptake was 4.9 %ID/g (female athymic nude mouse, U-87 MG tumour; intravenous, 3 µCi, 1 h, U-87 MG glioma xenograft).
